{"data": "Results of several laboratories", "note": "Compare with care: the assays were run in different laboratories. Numbers after ± are the reported error."}
{"SMILES": "CC(=O)c1cnc(N)nc1N1CC[C@H]1c1nn2ccc(Cl)c2c(=O)n1-c1ccccc1", "assay": "Th17 differentiation, measured: IL-22", "system": "healthy donor whole blood", "endpoint": "IC50", "result": "0.13 µM"}
{"SMILES": "CCCC[C@H](NC(=O)[C@@H](NC(=O)[C@H](CC(=O)O)NC(=O)[C@H](CCC(N)=O)NC(=O)[C@H](CC(C)C)NC(=O)[C@H](CC(C)C)NC(=O)[C@H](CCCN)NC(=O)[C@H](CCCNC(=N)N)NC(=O)[C@H](C)NC(=O)[C@H](CO)NC(=O)[C@H](CC(C)C)NC(=O)[C@H](CCC(N)=O)NC(=O)[C@H](CC)NC(=O)[C@H](CC(C)C)NC(=O)[C@@H](NC(=O)[C@H](CCCN)NC(=O)[C@H](CCCNC(=N)N)NC(=O)[C@H](Cc1ccc(O)cc1)NC(=O)[C@H](CO)NC(=O)[C@H](CC(N)=O)NC(=O)[C@@H](NC(=O)[C@H](Cc1ccccc1)NC(=O)[C@@H](NC(=O)[C@H](C)NC(=O)[C@H](CC(=O)O)NC(=O)[C@@H](C)NC(=O)[C@H](Cc1ccc(O)cc1)NC)[C@@H](C)CC)[C@@H](C)O)C(C)C)[C@@H](C)CC)C(=O)N[C@@H](CC(=O)O)C(=O)NCCCCNC(=N)N", "assay": "GH release", "system": "male rat, serum", "conditions": "subcutaneous, dose not given, 30 min", "scale": "baseline: GHRH(1-29)NH2", "endpoint": "relative potency", "result": 132}
{"SMILES": "CCCCSc1nnc(-c2ccccc2)o1", "assay": "H2O2 scavenging", "endpoint": "IC50", "result": "90.1 ± 2.2 µM"}
{"SMILES": "CC[C@H]1[C@@H](O)[C@@H]2[C@H](CC[C@]3(C)[C@@H]([C@H](C)CCOS(=O)(=O)[O-])CC[C@@H]23)[C@@]2(C)CC[C@@H](O)C[C@@H]12.[Na+]", "system": "ob/ob NASH mouse model", "conditions": "oral, 10 mg/kg once daily, before treatment, baseline of 8 week study", "endpoint": "body weight", "result": "49.4 ± 1.3 g"}
{"SMILES": "CC[C@H](C)[C@@H]1NC(=O)[C@H](Cc2ccccc2)NC(=O)[C@H](CCC(=O)O)NC(=O)[C@H](CCCNC(=N)N)NC(=O)CNC(=O)[C@@H](NC(=O)[C@H](CC(C)C)NC(=O)[C@H](CCCNC(=N)N)NC(=O)[C@@H](NC(=O)CNC(=O)[C@H](Cc2ccc(O)cc2)NC(=O)[C@@H]2CCCN2C(=O)[C@H](C)NC(=O)[C@H](C)NC(=O)[C@@H](N)CCCNC(=N)N)C(C)C)CSSC[C@@H]2NC(=O)[C@@H](NC(=O)[C@H](CO)NC(=O)[C@H](CO)NC(=O)[C@H](CO)NC(=O)[C@H](CC(C)C)NC(=O)CNC(=O)[C@H](C)NC(=O)[C@H](CC(C)C)NC(=O)[C@@H](NC(=O)[C@@H](N)CC(=O)O)C(C)C)CSSC[C@H](NC(=O)CNC(=O)[C@H](Cc3c[nH]c4ccccc34)NC(=O)[C@H](CCCCN)NC2=O)C(=O)N[C@@H](CO)C(=O)N[C@@H](CCCCN)C(=O)N[C@@H](CO)C(=O)N[C@@H](CCC(=O)O)C(=O)N[C@@H]([C@@H](C)CC)C(=O)N[C@@H](CO)C(=O)N[C@@H](CO)C(=O)N[C@@H](CC(C)C)C(=O)N[C@H](C(=O)O)CSSC[C@@H](C(=O)NCC(=O)NCC(=O)N[C@@H](CO)C(=O)N[C@@H](CCCNC(=N)N)C(=O)N[C@@H](Cc2c[nH]c3ccccc23)C(=O)O)NC(=O)[C@H]([C@@H](C)O)NC(=O)[C@H](Cc2ccccc2)NC(=O)[C@H]([C@@H](C)CC)NC(=O)[C@H](C(C)C)NC(=O)[C@H](C)NC(=O)[C@H](CCCNC(=N)N)NC1=O", "assay": "novelty-suppressed feeding test", "system": "fasted female Sprague-Dawley rats", "conditions": "intranasal, 275 µg/kg, 10 min", "scale": "baseline: vehicle", "endpoint": "total distance travelled", "result": "no effect"}
{"SMILES": "O=c1cc(-c2ccc(O)cc2)oc2cc3oc4cc(O)c(O)cc4c3c(O)c12", "assay": "ABTS scavenging, absorbance", "endpoint": "EC50", "result": "3180 µM"}
{"SMILES": "Cc1cc(O)c(C=O)c2c1C(=O)Oc1c(CO)c(O)c3c(c1O2)C(O)OC3=O (stereo not shown)", "assay": "mating test", "system": "rat, male, streptozotocin-induced diabetes", "conditions": "5 mg/kg", "endpoint": "mating success", "result": "58.3%"}
{"SMILES": "CC(C)C[C@H](N)C(=O)N1CCC[C@H]1C(=O)NCC(=O)NCC(=O)O", "assay": "diketopiperazine formation, Arrhenius plot, ESI-MS", "system": "1-propanol", "conditions": "70, 80, 90 °C, 0.5% acetic acid", "endpoint": "activation energy", "result": "104 ± 7 kJ/mol"}
{"SMILES": "CCCC[C@H](NC(=O)[C@@H](NC(=O)[C@H](CC(=O)O)NC(=O)[C@H](CCC(N)=O)NC(=O)[C@H](CC(C)C)NC(=O)[C@H](CC(C)C)NC(=O)[C@H](CCCN)NC(=O)[C@H](CCCNC(=N)N)NC(=O)[C@H](C)NC(=O)[C@H](CO)NC(=O)[C@H](CC(C)C)NC(=O)[C@H](CCC(N)=O)NC(=O)[C@H](CC)NC(=O)[C@H](CC(C)C)NC(=O)[C@@H](NC(=O)[C@H](CCCN)NC(=O)[C@H](CCCNC(=N)N)NC(=O)[C@H](Cc1ccc(O)cc1)NC(=O)[C@H](CO)NC(=O)[C@H](CCC(N)=O)NC(=O)[C@@H](NC(=O)[C@H](Cc1ccccc1)NC(=O)[C@@H](NC(=O)[C@H](C)NC(=O)[C@H](CC(=O)O)NC(=O)[C@@H](C)NC(=O)CCc1ccc(O)cc1)[C@@H](C)CC)[C@@H](C)O)C(C)C)[C@@H](C)CC)C(=O)N[C@@H](CC(=O)O)C(=O)N[C@@H](CCCNC(=N)N)C(=O)NC", "assay": "GH release", "system": "rat, male, serum", "conditions": "subcutaneous, 3 µg/kg, 15 min", "scale": "baseline: reference GHRH agonist JI-38", "endpoint": "relative potency", "result": 0.91}
{"SMILES": "C[C@H](NC(=O)COC(=O)[C@H](C)NC(=O)CO)C(=O)O", "system": "water", "conditions": "pH 2, 50 °C", "endpoint": "depolymerization rate constant", "result": "0.009 h⁻¹"}
{"note": "For quick reference, copied from above:"}
{"SMILES": "CC(=O)c1cnc(N)nc1N1CC[C@H]1c1nn2ccc(Cl)c2c(=O)n1-c1ccccc1", "assay": "Th17 differentiation, measured: IL-22", "system": "healthy donor whole blood", "endpoint": "IC50", "result": "0.13 µM"}
